# Measurements collected from several papers.
# Numbered parts are unrelated; each lists some results of a single study.

# Set 1
# Target: Sal-like protein 4, full length isoform B (SALL4, Homo sapiens, UniProt Q9UJQ4-2, residues 1-616)
# Technique: universal PBM
# Form: double-stranded DNA, one strand shown
# Matrix: in vitro
# Tested at: not given
# Notes: 8-mer, flanks averaged, mean of replicates
# Reading: higher = stronger binding
Sequence,E-score
GGTAGGCA,-0.0411
GAGGGGAA,-0.14
CAGTCTCG,-0.152
CCGAATGC,-0.194
AACGAAGC,-0.19
ACCCGCCT,-0.301
GAGGGTTA,0.068
AGCGTTGC,-0.192
AGGCGAGG,-0.233
AAAAGATA,0.309
CATTGACC,0.136
GCCGTTAA,-0.0152
AACGGGGC,-0.153
GCTAGATA,0.12
TCTCCCAA,0.0146
CCTATGCC,-0.0514
CTCGCGCC,-0.294
GATAGACA,0.0487
ATAGCGAA,0.35
GAGGCAGC,-0.204
AAGGCTCT,-0.159
AGTGAATA,0.197
CTCGCGTA,-0.09
ACGTACGG,-0.165
CCATATGG,-0.0324

# Set 2
# Target: Hepatocyte nuclear factor 3-alpha (Foxa1, Mus musculus, UniProt P35582, residues 1-468, full length assumed)
# Chain of UniProt P35582 (whole entry, looked up): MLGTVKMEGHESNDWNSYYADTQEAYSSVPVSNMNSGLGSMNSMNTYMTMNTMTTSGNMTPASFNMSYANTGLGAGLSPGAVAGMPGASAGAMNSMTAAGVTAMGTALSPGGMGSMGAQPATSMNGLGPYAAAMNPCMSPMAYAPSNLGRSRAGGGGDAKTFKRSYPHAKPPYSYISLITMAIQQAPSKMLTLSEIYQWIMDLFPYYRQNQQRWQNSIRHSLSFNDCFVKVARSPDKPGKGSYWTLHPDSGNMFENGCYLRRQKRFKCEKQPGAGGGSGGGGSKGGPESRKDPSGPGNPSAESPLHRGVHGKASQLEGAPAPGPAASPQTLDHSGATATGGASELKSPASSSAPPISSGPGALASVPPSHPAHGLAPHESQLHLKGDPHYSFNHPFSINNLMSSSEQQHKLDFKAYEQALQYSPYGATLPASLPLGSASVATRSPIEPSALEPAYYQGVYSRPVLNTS
# Technique: EMSA with sequencing
# Form: double-stranded DNA, one strand shown
# Matrix: in vitro
# Tested at: 10 and 20 nM
# Notes: whole designed probe, mean of two concentrations, ends assumed
# Reference: negative control set to 0
# Reading: higher = stronger binding
# All sequences stand within: GTGAGCGGTGCCCATTGATGGGGAAC … TTTCACTGGGATCGTGGGGAC
Sequence,normalised bound fraction [ratio]
TCCTTTATCCCAACATGTTTATACAGACAAAACCAGGTTAAAATCGACACAAGGTCAAAAGAGGAAGGTCTTGAAATGGGGAGACGTCACAAAATAAACATGAAGTCTTGTGTACAAGCATCTGCAGAAGAGTTCAGCCTCACCACTTGGGTAATGCTGTTGGAATGTGGTCTGGGTTCACTGTATTTGAATG,0.366
ATAAAGCTTTTCACCTGACGCAGGATAATAGCGAGTGCATGTGTGCTGGTTAGATTACTGTGAGTCTCTCAGAGGAAATCATGTGCATCTGTCAGATTACTTTTCCGTGGAACCTAGAAGGTCACCTCTAAAAATAATCTTGCTCGGTGTTAGAGTTTCTGTGACACAGAGGTACATACCTCACATGCTCTCC,-0.061
ACACAGAACTCAAATGTACAAATTCATAAATCTCATTTTGAGATGCACTTTCAGTTGAGGGACATTGAACAAGTAAGCTCATAAACATAAAAGTAAACAAGGGCAATAAATGTAAATATTTGTACACAATTATAAGTAATATAGAAGCTATCAAAATCCAAGTTCTTCTCCTGTCCATTAGCACACAGCCAGG,0.493
CCACATGACTCATAAATAGATGGAAAGACACTCAACCACTTCAGTAGCCAAGCAAATTCAAACACACATCACAATGAGGTATTACTATACTCTGCAAACACCAAGTATCGGCAAGGATGTCGAGCGACAGGGAGTCCCGTGCACTGCCAGGGGAGGTGTGAATCGGCACATCCAGGTGGGAAAGCAAAGTGGC,0.108
ATTTTTTTTTTCTTCCTTGCCCCACCAGCTCACCTTCCCGGGTTATTTGCAGATAGGAAAATAAATAAAGCCGGCATTCGTTAACCCTCTTCTGGCGCAAACTGCTGTTTGCTCTGGATGAATCATGGTCCTTTGGCGACGCCAGGCTCCGGGAGAGCAAAGCACCGTGTCAGGGCCATGATCCGGGGTGGCC,0.319

# Set 3
# Target: RING finger protein unkempt homolog, zinc fingers 1-6, GST-SBP tag (UNK, Homo sapiens, UniProt Q9C0B0, residues 30-357)
# Technique: RNA Bind-n-Seq
# Form: RNA
# Matrix: in vitro
# Tested at: not given
# Notes: RNA with constant flanks, human and mouse sites, ends assumed
# Reference: input RNA pool
# Reading: higher = stronger binding
# All sequences stand within: GGGAGUUCUACAGUCCGACGAUC … CAACAGAGGAUUGAGCAUCA
# Construct (chain): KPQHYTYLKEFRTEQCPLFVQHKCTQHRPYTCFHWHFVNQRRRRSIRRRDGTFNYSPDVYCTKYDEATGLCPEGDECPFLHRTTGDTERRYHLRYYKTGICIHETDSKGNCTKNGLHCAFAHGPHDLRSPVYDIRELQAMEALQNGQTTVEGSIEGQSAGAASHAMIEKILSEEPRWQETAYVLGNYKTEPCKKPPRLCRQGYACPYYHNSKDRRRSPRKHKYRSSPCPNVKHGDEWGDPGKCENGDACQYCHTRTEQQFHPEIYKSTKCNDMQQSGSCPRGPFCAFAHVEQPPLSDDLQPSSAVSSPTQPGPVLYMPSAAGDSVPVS
Sequence,bound/input enrichment
GUCGCGGAACAGCAGGCCCGAGCCCACCGCGCCGGGCCCCGGACGCCGCGCGGAAAAGAUGAAUUUACAACCAAUUUUCUGGAUUGGACUGAUCAGUUCAGUUUGCUGUGUGUUUGCUCA,0.127 ratio
AGCAGCUCCAGUCAGUCUCAGUCAUCUUACAUCAUUCGGAACCCACAGCAGAGGCGCAUCAGCCAGUCACAGCCCGUCAGAGGCCGAGACGAGGAGCAGGAUGAUAUUGUGUCAGCAGAC,0.073 ratio
GCUAGGGCAGGGCGGGGGCUCCGGCGCUCGGGCGCGCUGGACCUCGGGGCGCGGGCGGGCGAGGGUGGCAGGAGGGCGGCGAGGGCAAGGGAGGGGACCCGAGGCUGCCUCUCCGCCAGC,1.32 ratio
CCACAGCAGCAGCCAGGAGAAGCCUAUUCAGCUAUGCCUCGGGCUCAGCCAUCCUCUGCUUCUUAUCAGCCAGUGCCAGCAGACCCUUUUGCCAUUGUUUCCAGAGCCCAGCAGAUGGUU,0.132 ratio
GUUAUUUGAUUUAUUUAAAGGCUAAAAUUUGUUUUUUUAUUCUUUGCACAAUUGUUUCAUUGUUUGACACUUAAUGCACUCGUCAUUUGCAUACGACAGUAGCAUUCUGACCACACUUGU,1.08 ratio
CUUAUGACUCUUGUGGGUCAUGAUAACUGGGUACGUGGAGUUCUGUUCCAUUCUGGGGGGAAGUUUAUUUUGAGUUGUGCUGAUGACAAGACCCUCCGUGUAUGGGAUUAUAAGAACAAG,0.35 ratio
CCUGAAGUGCGACACCACUGUCCCAAUACUCCUAUCAUCCUCGUGGGGACGAAGCUUGAUCUUAGGGAUGAUAAGGACACCAUUGAGAAGCUGAAGGAGAAGAAGCUGACUCCCAUCACC,0.11 ratio
UUGAAAAACACAGAUAUCAAAGUUGUUGAUUUUGGAAGUGCAACAUAUGACGACGAACAUCAUAGUACUUUGGUGUCCACAAGGCACUACAGGGCUCCAGAGGUCAUUUUGGCUCUAGGU,0.226 ratio
AAAGAUAUCAUUACCAAGGUUGCCAAUGUGGAACUAUACUACAGAGCAAUACAGUUCUACUUAGAAUUCAAGCCUCUGUUGUUAAAUGAUUUGCUGAUGGUGCUGUCUCCACGGUUGGAU,0.455 ratio
GGCAGCGCCAUAUUCAUCACUUCCUAUGUUAGGCCUGUCAAGUUCUGGGAGAGAGACUACAACACAAAACGUGUAGACCAUUCAAAUACCAGAUUGGCUUCUCAGCUUGAUAGAAAUCCA,0.264 ratio
GUGAGAGGCGAGAAGGAGGCUCUAGACCUGCGAAAGGAAAAAGAAACCCUUGAGAGGAAACUUAGAGAUGCAAGUAAGGAAUUGGAGAAAAACACUAACAAAAUUAAGCAGCUGUCUCAG,0.658 ratio

# Set 4
# Target: Interferon regulatory factor 5, full length, phosphomimetic (IRF5, Homo sapiens, UniProt Q13568-2, residues 1-514, S451D/S453D/S456D/S462D)
# Technique: protein-binding microarray
# Form: double-stranded DNA, one strand shown
# Matrix: in vitro
# Tested at: 940 nM top
# Notes: 60-bp whole probe
# Together with: salmon DNA 0.4 mg/ml
# Reference: random background probes
# Reading: higher = stronger binding
# All sequences stand within: GCCTAGCAC … GTCTTGATTCGCTTGACGCTGCTG
Sequence,fitted relative affinity
GACGATATCAGTATCGAGAGGTGCTAG,1.53 z-score
ATAGGACTGGACTTTCGGTTAGTGCTA,2.72 z-score
TCAGGTTTCGGACTGGGTTAGTGCTAG,6.34 z-score
GACCATATCAGACTGGAGACGTGCTAG,-0.0888 z-score
AAATGATTGGTTGAACATGAGTGCTAG,-0.191 z-score
TTTCCTCTGTCATTTTCTCTGTGCTAG,2.21 z-score
GACGGAATCGGGTTTCGGGACGTGCTA,2.48 z-score
TCATTTCTACTTCTGTTACTGTGCTAG,1.37 z-score
GTCCCTATCTCCTCACAGACCGTGCTA,1.16 z-score
GACGGACTGGACACTGGGGACGTGCTA,-0.542 z-score
ATGCTTTACTCACTCGGAAAGTGCTAG,0.151 z-score
AACGATATCGGGTATCGAGACGTGCTA,1.23 z-score
TTAGGTCTCGGTATAGGTTAGTGCTAG,4.87 z-score
GACCCTGGACACTTCACGTAGTGCTAG,-0.207 z-score
TTGCTTTCCTTCTTGAACTCGTGCTAG,1.32 z-score
TTAGATATCGAGTTTCGATTAGTGCTA,6.22 z-score
GACGATTCCAGTTTAGAGACGTGCTAG,-0.0468 z-score

# Set 5
# Target: Histone acetyltransferase KAT6A, winged helix 2, GST fusion (KAT6A, Homo sapiens, UniProt Q92794, residues 85-181)
# Technique: protein binding microarray
# Form: double-stranded DNA, one strand shown
# Matrix: in vitro
# Tested at: not given
# Notes: 8-mer, flanks averaged, mean of 2 arrays, mostly near background
# Reference: not given
# Reading: higher = stronger binding
# Residues (chain): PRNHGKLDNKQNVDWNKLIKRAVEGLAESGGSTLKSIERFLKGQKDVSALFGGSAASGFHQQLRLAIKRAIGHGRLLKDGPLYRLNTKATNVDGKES
Sequence,E-score
CTTTTCAC,-0.0593
GCGACGAC,-0.0877
ACCTGAAT,-0.00277
CATGGCCG,0.087
ACCTTAAC,-0.213
CTCTTTCC,0.00551
TCAAGTAA,-0.122
ACGAAGTA,0.0113
AGGCACAT,-0.0645
ACGTTGTC,-0.213
ATCTCAAT,-0.0797
CGAATTAA,0.0835
GATCAATA,-0.0516
CCTTCGTA,-0.0267
CCGGACCC,0.167
GGGATTAA,0.0756
CATAAATG,-0.0988
GCGCTGCA,0.146
AATTCATC,-0.0952
TAGCATGA,0.0344
CGCAGAGA,-0.00924
ACGCTCCA,0.124
GCCTGCGC,0.168
CGGTCTGC,0.145
GAACCCTC,-0.0538

# Repeated from above (set 1):
Sequence,E-score
TCTCCCAA,0.0146
CCTATGCC,-0.0514
CTCGCGCC,-0.294
GATAGACA,0.0487
ATAGCGAA,0.35
GAGGCAGC,-0.204
